Results of several laboratories.
Protocols differ between the studies behind these lines. ± gives the spread as reported.
Cell line: HL-60

`CCn1cc(-c2cc(Cn3ccnc3)cc3c2CCN([C@H](c2cc(OC)ccn2)C2CC2)C3=O)c(C(F)(F)F)n1` has an EC50 of 8470 nM (cell growth, inhibitor; 120 h).
With `Fc1ccc(Oc2ccc(Nc3ccc4ncc(OCC5CCNCC5)nc4c3)cc2)cc1` the EC50 was 660 ± 130 nM (cell proliferation, XTT; 7 days).
Under “6-thio-dGTP in DNA”, `O=C(c1ccc2[nH]ccc2c1)N1CCN(S(=O)(=O)c2ccc3[nH]c(=O)oc3c2)CC1` is recorded as 1190 a.u. (NUDT15 inhibitor, mass spectrometry; 10 µM, 16 h, with: 6-thioguanine 0.5 µM; higher = more incorporation).
`c1cc(N2CCCCC2)ccc1Nc1cc2ncc(OCC3CCNCC3)nc2cc1-c1ccc(N2CCCCC2)cc1` gave an EC50 of 3300 ± 40 nM (cell proliferation, XTT; 7 days).
The inhibition of `Cc1cc(C)nc(SCC(=O)Nc2ncc(Cc3cccc(OCc4cn(Cc5ccccc5C)nn4)c3)s2)n1` is reported as 16.6 ± 4.7% (cell viability, MTS; 10 µM).
`C=Cc1c(C)c2cc3nc(c4c5[nH]c(cc6nc(cc1[nH]2)C(C)=C6CC)c(C)c5C(=O)C4)[C@@H](CCC(=O)O)[C@@H]3C` gave an ED50 of 1600 nM (metabolic activity, XTT; 1 h, dark).
`O=C1NCCc2[nH]c(-c3ccncc3)cc21` has an IC50 of 247 nM (cytotoxicity, MTS; NCI60 panel; acute myeloid leukaemia).
The log10 TGI of `S=C([S][Au-][P+](CCCCCC[P+]([Au-][S]C(=S)n1cccn1)(c1ccccc1)c1ccccc1)(c1ccccc1)c1ccccc1)n1cccn1` is reported as -6.01 (cell growth, NCI-60 screen; leukemia).
For `CCCCCCCC(=O)Nc1ncc(Cc2cccc(OCc3cn(CCOC)nn3)c2)s1`, the inhibition was 24.3 ± 6.9% (cell viability, MTS; 10 µM).
The DNA radioactivity of `Sc1ncnc2nc[nH]c12` is reported as 124 a.u. (radioactive counts; 1 µM, 14C-labelled compound; higher = more incorporation).
With `C[C@@H]1CC2=C(CN1Cc1cccc(C#N)c1)C(=O)N(Cc1ccc(Br)c(F)c1)C1=NCCN12` the IC50 was 28.9 ± 5.29 nM (cell growth, MTS).
With `CN1C(=O)C(=O)c2cc3c(c4c2c1cc1ccccc14)OCO3` the inhibition was < 50% (cytotoxicity, XTT; 50 µg/mL, 48 h).
With `C[C@@H]1CC2=C(CN1Cc1cccc(C#N)c1)C(=O)N(Cc1cccc3ccccc13)C1=NCCN12` the IC50 was 28.2 ± 2.38 nM (cell growth, MTS).
The EC50 of `c1ccc(Oc2ccc(Nc3ccc4ncc(OCC5CCNCC5)nc4c3)cc2)cc1` is reported as 1200 ± 120 nM (cell proliferation, XTT; 7 days).
For `Cc1cc(Br)ccc1CN1C(=O)C2=C(C[C@@H](C)N(Cc3cccc(C#N)c3)C2)N2CCN=C12`, the IC50 was 34.4 ± 2.13 nM (cell growth, MTS).
For `CC(=O)c1n[nH]c2ccc(-c3cnc4ccc(N(C)C5CCOCC5)nn34)cc12`, the IC50 was 630 ± 60 nM (IL6 release; 24 h, with: LPS 0.2 µg/mL).
